Results gathered from unrelated publications.
Each line is one published result; not all experiments were run side by side.
crk3 with CYC6: crk3, with CYC6 (Leishmania mexicana, UniProt O15851)
SNCA pre-formed fibrils: Alpha-synuclein, pre-formed fibrils (SNCA, Homo sapiens, UniProt P37840)
UniProt Q15059, sequence (whole entry, looked up): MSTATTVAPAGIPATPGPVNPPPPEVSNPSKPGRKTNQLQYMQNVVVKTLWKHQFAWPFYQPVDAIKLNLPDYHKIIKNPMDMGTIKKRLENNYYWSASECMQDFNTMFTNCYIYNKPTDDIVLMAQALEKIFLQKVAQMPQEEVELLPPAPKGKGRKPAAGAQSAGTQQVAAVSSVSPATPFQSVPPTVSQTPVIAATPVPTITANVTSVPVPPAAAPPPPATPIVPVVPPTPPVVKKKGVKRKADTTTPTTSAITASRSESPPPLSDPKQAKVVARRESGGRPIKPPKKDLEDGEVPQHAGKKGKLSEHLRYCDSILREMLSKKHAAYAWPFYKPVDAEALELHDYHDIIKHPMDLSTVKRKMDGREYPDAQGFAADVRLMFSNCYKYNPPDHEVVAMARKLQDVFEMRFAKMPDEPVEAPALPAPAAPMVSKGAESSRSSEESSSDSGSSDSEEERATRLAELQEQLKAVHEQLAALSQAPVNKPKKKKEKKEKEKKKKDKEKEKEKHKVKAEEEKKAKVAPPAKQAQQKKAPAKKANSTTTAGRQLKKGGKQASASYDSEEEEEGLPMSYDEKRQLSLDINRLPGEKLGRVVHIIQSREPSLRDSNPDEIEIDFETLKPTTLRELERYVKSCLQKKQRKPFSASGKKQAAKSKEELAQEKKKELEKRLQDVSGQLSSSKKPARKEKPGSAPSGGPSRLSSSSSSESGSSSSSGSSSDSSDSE
UniProt Q14123, sequence (whole entry, looked up): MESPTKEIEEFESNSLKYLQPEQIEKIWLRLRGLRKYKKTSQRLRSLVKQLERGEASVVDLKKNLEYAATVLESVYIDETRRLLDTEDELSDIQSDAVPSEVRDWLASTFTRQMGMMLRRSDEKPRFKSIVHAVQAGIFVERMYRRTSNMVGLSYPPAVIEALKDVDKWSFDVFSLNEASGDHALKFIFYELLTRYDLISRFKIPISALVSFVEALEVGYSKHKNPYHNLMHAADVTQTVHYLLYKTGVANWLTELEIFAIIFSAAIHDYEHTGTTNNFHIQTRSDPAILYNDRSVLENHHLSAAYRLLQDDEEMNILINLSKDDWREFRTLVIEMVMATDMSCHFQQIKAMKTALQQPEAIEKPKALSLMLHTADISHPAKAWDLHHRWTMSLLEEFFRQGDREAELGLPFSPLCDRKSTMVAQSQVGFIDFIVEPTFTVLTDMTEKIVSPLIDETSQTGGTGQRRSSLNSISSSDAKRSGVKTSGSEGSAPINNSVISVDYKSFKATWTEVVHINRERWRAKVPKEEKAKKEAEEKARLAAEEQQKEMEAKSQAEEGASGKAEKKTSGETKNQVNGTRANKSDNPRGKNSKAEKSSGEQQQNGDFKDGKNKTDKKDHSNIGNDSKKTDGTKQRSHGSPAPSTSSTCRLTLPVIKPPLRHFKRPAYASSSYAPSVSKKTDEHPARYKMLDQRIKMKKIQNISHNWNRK
UniProt Q5S007, sequence (whole entry, unmodified, looked up): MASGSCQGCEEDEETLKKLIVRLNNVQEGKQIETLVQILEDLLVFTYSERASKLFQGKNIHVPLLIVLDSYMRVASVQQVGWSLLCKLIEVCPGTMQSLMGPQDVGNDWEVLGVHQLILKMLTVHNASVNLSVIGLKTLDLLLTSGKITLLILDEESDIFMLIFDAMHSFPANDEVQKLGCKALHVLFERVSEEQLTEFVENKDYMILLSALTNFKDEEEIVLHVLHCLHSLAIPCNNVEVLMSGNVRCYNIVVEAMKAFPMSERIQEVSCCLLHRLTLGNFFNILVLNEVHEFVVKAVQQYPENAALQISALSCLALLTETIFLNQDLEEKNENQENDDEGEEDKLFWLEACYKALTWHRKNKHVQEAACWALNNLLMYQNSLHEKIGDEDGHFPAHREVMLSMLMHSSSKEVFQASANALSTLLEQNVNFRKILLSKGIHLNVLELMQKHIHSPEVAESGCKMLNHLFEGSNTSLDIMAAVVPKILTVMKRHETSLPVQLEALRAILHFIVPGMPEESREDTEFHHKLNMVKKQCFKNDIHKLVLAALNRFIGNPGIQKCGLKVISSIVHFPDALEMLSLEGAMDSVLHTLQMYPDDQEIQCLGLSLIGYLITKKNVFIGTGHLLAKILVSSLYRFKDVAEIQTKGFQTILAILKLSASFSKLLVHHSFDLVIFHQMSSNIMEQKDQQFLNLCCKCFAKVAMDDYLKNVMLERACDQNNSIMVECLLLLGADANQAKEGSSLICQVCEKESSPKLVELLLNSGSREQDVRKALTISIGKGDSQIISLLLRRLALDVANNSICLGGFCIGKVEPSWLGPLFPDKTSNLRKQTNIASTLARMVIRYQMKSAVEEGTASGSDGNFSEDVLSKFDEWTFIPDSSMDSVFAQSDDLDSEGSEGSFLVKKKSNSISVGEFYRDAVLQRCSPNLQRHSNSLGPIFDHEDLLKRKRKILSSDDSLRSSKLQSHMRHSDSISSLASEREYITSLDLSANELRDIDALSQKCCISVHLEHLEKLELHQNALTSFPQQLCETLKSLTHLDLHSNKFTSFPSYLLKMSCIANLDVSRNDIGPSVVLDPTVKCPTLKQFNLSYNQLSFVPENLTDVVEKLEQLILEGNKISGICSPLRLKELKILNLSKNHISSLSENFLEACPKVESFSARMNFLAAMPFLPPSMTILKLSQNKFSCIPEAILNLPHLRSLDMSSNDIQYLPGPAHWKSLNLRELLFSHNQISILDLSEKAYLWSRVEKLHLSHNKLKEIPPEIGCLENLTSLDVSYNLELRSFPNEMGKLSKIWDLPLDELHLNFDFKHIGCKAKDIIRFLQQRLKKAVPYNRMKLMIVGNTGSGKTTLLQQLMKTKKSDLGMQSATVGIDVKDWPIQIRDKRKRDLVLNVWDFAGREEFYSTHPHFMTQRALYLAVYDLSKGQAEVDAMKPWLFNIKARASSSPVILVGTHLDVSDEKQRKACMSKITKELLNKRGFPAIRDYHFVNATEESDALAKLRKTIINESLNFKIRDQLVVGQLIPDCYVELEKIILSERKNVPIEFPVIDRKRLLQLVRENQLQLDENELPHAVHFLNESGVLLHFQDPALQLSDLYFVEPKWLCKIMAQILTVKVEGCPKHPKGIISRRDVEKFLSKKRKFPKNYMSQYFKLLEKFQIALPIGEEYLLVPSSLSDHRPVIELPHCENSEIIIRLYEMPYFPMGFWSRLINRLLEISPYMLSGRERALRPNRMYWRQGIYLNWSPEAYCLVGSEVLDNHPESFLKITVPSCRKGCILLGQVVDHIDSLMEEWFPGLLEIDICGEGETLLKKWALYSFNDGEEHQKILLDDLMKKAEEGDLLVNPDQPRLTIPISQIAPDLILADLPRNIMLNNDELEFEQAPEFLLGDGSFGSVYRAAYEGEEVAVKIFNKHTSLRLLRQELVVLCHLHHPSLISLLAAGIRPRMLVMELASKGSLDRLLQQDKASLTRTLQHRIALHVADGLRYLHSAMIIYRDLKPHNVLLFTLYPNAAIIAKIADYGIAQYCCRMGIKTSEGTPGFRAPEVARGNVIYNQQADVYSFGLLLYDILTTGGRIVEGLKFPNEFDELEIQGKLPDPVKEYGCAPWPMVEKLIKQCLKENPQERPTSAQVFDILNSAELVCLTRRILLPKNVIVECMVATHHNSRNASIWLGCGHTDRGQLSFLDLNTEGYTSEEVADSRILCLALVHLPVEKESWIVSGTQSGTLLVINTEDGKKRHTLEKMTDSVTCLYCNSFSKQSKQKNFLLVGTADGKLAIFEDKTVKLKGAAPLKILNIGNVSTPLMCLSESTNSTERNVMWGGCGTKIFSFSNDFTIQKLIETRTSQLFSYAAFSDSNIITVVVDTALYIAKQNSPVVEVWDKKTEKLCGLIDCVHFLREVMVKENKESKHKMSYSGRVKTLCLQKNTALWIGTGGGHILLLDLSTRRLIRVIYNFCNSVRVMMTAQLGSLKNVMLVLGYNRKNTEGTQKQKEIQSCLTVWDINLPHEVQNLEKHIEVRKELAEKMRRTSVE
UniProt P14416, sequence (whole entry, looked up): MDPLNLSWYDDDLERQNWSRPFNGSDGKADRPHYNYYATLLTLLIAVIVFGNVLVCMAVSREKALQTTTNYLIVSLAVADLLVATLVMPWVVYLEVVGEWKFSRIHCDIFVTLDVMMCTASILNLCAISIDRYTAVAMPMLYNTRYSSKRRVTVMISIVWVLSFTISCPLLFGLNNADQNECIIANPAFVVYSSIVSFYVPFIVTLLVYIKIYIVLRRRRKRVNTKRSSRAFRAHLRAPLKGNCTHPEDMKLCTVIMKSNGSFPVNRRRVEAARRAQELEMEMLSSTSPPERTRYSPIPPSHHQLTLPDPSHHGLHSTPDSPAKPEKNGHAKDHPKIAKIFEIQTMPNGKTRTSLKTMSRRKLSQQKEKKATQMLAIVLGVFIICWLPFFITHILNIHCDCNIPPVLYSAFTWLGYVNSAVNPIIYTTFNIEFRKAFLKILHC

Compound | target | observed | mode | technique | with | IC50
COc1cc(F)c(-c2cc(Cn3cnc4c(N)ncnc43)c(N3CCC[C@](N)([C@H](O)C(F)F)C3)cn2)cc1F | Histone-lysine N-methyltransferase SETD2 (SETD2, Homo sapiens, UniProt Q9BYW2) | enzyme activity | inhibitor | – | – | 7.63 µM
O=C(Nc1cc(-c2c(F)cccc2F)[nH]n1)C1CCC1 | crk3 with CYC6 | enzyme activity | inhibitor | radiometric | Leishmania major CYC6 cyclin, 1 µM ATP | 1.3 µM
CC(C)(C)n1ncc2c(=O)n(Cc3cccc(F)c3)c(NCc3cccnc3)nc21 | Dual specificity calcium/calmodulin-dependent 3',5'-cyclic nucleotide phosphodiesterase 1C (PDE1C, Homo sapiens, UniProt Q14123) | enzyme activity | inhibitor | radiometric | – | 0.004 µM
COc1cc(OC)c2c(=O)cc(-c3cc(C)c(OCCCN4CCN(C)CC4)c(C)c3)oc2c1 | Bromodomain-containing protein 3, BD2 (BRD3, Homo sapiens, UniProt Q15059) | cell-free assay | – | TR-FRET | – | 1.59 µM
Cc1nn(-c2cccc(N)c2)c(=O)c2cnc(Nc3ccc(N4CCNCC4)cc3)nc12 | Leucine-rich repeat serine/threonine-protein kinase 2 (LRRK2, Homo sapiens, UniProt Q5S007, G2019S) | enzyme activity | inhibitor | – | – | > 10 µM
CN1CCN(c2ccc3cc(COC(=O)Nc4cccc(C(=O)NO)c4)ccc3c2)CC1 | SNCA pre-formed fibrils | binding to RAGE | inhibitor | ELISA | FLAG-α-syn PFFs 100 nM | 0.749 µM
Cc1[nH]c(C)c(S(=O)(=O)Nc2cccc(Cl)c2)c1C(=O)N1CCCC1 | D(2) dopamine receptor (DRD2, Homo sapiens, UniProt P14416) | – | – | – | – | > 100 µM
CC(C)(C)n1ncc2c(=O)n(Cc3cccc(F)c3)c(NCc3ccc(F)cn3)nc21 | cGMP-dependent 3',5'-cyclic phosphodiesterase (PDE2A, Homo sapiens, UniProt O00408) | enzyme activity | inhibitor | – | – | > 10 µM
CCN(CC)Cc1ccc2cc(COC(=O)Nc3cccc(C(=O)NO)c3)ccc2c1 | SNCA pre-formed fibrils | binding to mouse LAG3 D1 | inhibitor | ELISA | FLAG-α-syn PFFs 100 nM | 8.44 µM
Cc1n[nH]c(=S)n1C | Tyrosine-protein kinase SYK, tandem SH2 domains (SYK, Homo sapiens, UniProt P43405) | binding | inhibitor | TR-FRET | FITC-FCER1G phospho-ITAM peptide | > 100 µM
c1cncc(-c2cnn3ccc(Nc4ccc(N5CCOCC5)cc4)nc23)c1 | crk3 with CYC6 | enzyme activity | inhibitor | radiometric | Leishmania major CYC6 cyclin, 1 µM ATP | 0.54 µM
